Measurements of several laboratories.
Compare with care: the assays were run in different laboratories. Numbers after ± are the reported error.

SMILES | target | assay | test system | conditions | how to read | quantity | value
Cn1c(=O)oc2ccc(-c3ccc(CC(C#N)NC(=O)C4CNCCCO4)c(F)c3)cc21 (stereo not shown) | neutrophil elastase (human) | neutrophil-normalised activity | human, whole blood | 40 mg once daily, day 19 | – | reduction | 61.6%
CSc1nn(-c2ccccc2)c(NC(=O)/C(C#N)=C(/Nc2ccc(C)cc2)Nc2c(C)n(C)n(-c3ccccc3)c2=O)c1C#N | COX-1 and COX-2, sheep | enzyme activity, inhibitor | – | – | reference: IC50 COX-1 over IC50 COX-2 | selectivity ratio | 181
Cc1sc2ncn(CC(=O)N3CCCC3)c(=O)c2c1-c1cccc(Br)c1 | NMDA receptor, mouse | single-channel current, outside-out patch | cortical neurons | concentration not given, holding -80 mV, together with: Ca2+ 0.5 mM | – | unitary current amplitude 2 | -3.17 ± 0.26 pA
CC[C@H](C)[C@H](NC(=O)[C@H](CC(C)C)NC(=O)[C@@H](NC(=O)[C@@H](NC(=O)[C@H](CC(C)C)NC(=O)[C@H](CCCCN)NC(=O)[C@@H](N)CCCCN)[C@@H](C)CC)[C@@H](C)O)C(=O)N[C@@H](Cc1ccccc1)C(=O)N[C@@H](CCCCN)C(=O)N[C@@H](CCCCN)C(=O)N[C@H](C(=O)N[C@@H](CCCNC(=N)N)C(=O)N[C@@H](CCC(=O)O)C(=O)N[C@@H](CCCCN)C(=O)N[C@@H](CCCCN)C(=O)N[C@@H](CCCCN)C(=O)N[C@@H](CCC(=O)O)C(=O)N[C@@H](CS)C(=O)N[C@@H](CC(C)C)C(=O)N[C@H](C(=O)O)C(C)C)[C@@H](C)O | voltage-gated sodium channel | resurgent sodium current, kinetic model fit | mouse CA3 neurons | 200 µM, membrane potential -30 mV | – | rate constant kIO | 7 s⁻¹
O=C(c1ccc(F)cc1)N1CCCC(c2nc(-c3ccncc3)no2)C1 (stereo not shown) | mGluR5 | calcium fluorescence, positive allosteric modulator | mGluR5-expressing cells | together with: glutamate EC20 | – | EC50 | 1.41 ± 0.216 µM
CC[C@H](C)[C@H](NC(=O)[C@H](Cc1ccccc1)NC(=O)[C@@H](NC(=O)[C@@H](NC(=O)[C@H](CC(C)C)NC(=O)[C@H](CCCCN)NC(=O)[C@@H](N)CCCCN)[C@@H](C)CC)[C@@H](C)O)C(=O)N[C@@H](CC(C)C)C(=O)N[C@@H](CCCCN)C(=O)N[C@@H](CCCCN)C(=O)N[C@H](C(=O)N[C@@H](CCCNC(=N)N)C(=O)N[C@@H](CCC(=O)O)C(=O)N[C@@H](CCCCN)C(=O)N[C@@H](CCCCN)C(=O)N[C@@H](CCCCN)C(=O)N[C@@H](CCC(=O)O)C(=O)N[C@@H](CS)C(=O)N[C@@H](CC(C)C)C(=O)N[C@H](C(=O)O)C(C)C)[C@@H](C)O | voltage-gated sodium channel | resurgent sodium current, kinetic model fit | mouse CA3 neurons | 200 µM, membrane potential -10 mV | – | rate constant kIO | 8 s⁻¹
CCCCC/C=C/C(=O)CCc1ccc(O)c(OC)c1 | mAb 2-LD2 | antibody binding, indirect competitive ELISA | – | together with: coating antigen hapten 1-OVA | – | IC50 | 0.0117 µg/mL
CCCCCCCCCCCCCC(=O)N[C@@H](CO)C(=O)N[C@H](C(=O)N[C@@H](Cc1ccc(O)cc1)C(=O)N[C@@H](CCCNC(=N)N)C(=O)N[C@@H](CCCNC(=N)N)C(=O)NCC(=O)N[C@@H](C)C(=O)N[C@@H](CCCNC(=N)N)C(=O)N[C@@H](CCCNC(=N)N)C(=O)N[C@@H](Cc1c[nH]c2ccccc12)C(=O)N[C@@H](CCCNC(=N)N)C(=O)N[C@@H](CCCCN)C(=O)N[C@@H](CC(C)C)C(=O)O)[C@@H](C)CC | PKMζ | measured: ~180 kDa band | 293T overexpressing PKMζ | 100 µM | – | substrate phosphorylation | no effect
Cc1cc(N)c2cc(NC(=O)C(=O)Nc3ccc4nc(C)cc(N)c4c3)ccc2n1 | factor Xa | anticoagulant neutralization, chromogenic | – | together with: enoxaparin 0.2 IU/mL, human antithrombin III | – | IC50 | 8 ± 0.2 µM
COc1cc(C(C)C)c(Oc2cnc(N)nc2N)cc1I | chicken P2X3 A196G | ion current, inhibitor, patch clamp | HEK293 transfected | 10 µM, together with: ATP 10 µM | – | ATP-evoked current | inhibited
Cc1cc(C)nc(NC(=S)N2CCN(Cc3ccc(C(F)(F)F)cc3)CC2)c1 | panel of other dehydrogenases | enzyme activity | – | concentration not given | – | inhibition | inactive
CCCNCC(=O)O | DNA | UV-vis absorption titration | – | pH 7.4, room temperature | – | apparent binding constant | 1.11 mM⁻¹
CC[C@H](C)[C@H](NC(=O)[C@H](C)NC(=O)[C@@H](NC(=O)[C@@H](NC(=O)[C@H](CC(C)C)NC(=O)[C@H](CCCCN)NC(=O)[C@@H](N)CCCCN)[C@@H](C)CC)[C@@H](C)O)C(=O)N[C@@H](CC(C)C)C(=O)N[C@@H](CCCCN)C(=O)N[C@@H](CCCCN)C(=O)N[C@H](C(=O)N[C@@H](CCCNC(=N)N)C(=O)N[C@@H](CCC(=O)O)C(=O)N[C@@H](CCCCN)C(=O)N[C@@H](CCCCN)C(=O)N[C@@H](CCCCN)C(=O)N[C@@H](CCC(=O)O)C(=O)N[C@@H](CS)C(=O)N[C@@H](CC(C)C)C(=O)N[C@H](C(=O)O)C(C)C)[C@@H](C)O | voltage-gated sodium channel | resurgent sodium current, kinetic model fit | mouse CA3 neurons | 200 µM, membrane potential -30 mV | – | rate constant kOI | 147 s⁻¹
O=C(c1ccc(F)cc1)N1CCCC(c2nc(-c3ccccn3)no2)C1 (stereo not shown) | mGluR5 | calcium fluorescence, positive allosteric modulator | mGluR5-expressing cells | together with: glutamate EC20 | reference: maximal glutamate response | Emax | 109 ± 2%
Cc1ccc(-n2nc(C3CC3)nc2C2CCCN(C(N)=O)C2)cc1C (stereo not shown) | recombinant aromatase CYP19 | absorption spectroscopy | – | 100 µM, no androstenedione | – | Soret peak wavelength | 420 nm
CCCCCC(C)NCC(=O)O (stereo not shown) | DNA | UV-vis absorption titration | – | pH 7.4, room temperature | – | apparent binding constant | 1.33 mM⁻¹
O=C(c1ccc(F)cc1)N1CCCC(c2nc(-c3cccs3)no2)C1 (stereo not shown) | mGluR5 | calcium fluorescence, positive allosteric modulator | mGluR5-expressing cells | together with: glutamate EC20 | – | EC50 | 0.17 ± 0.028 µM
CNC(=O)C1CCN(c2ccccc2NC(=O)c2ccc(-c3cc(O)ccc3C)c(C)n2)CC1 | human EPHA2/EPHA4 | phosphorylation, inhibitor, Western blot | A673 | together with: EFNA5 0.5 µg/mL | lowest concentration | inhibitory concentration | 100 nM
CCC(=O)Oc1ccc(Cl)cc1C(=O)Nc1ccc([N+](=O)[O-])cc1Cl | androgen receptor | Western blot | CWR22Rv1 | 1 µM, 16 h | – | AR protein level | inhibited
CC[C@H](C)[C@H](NC(=O)[C@H](CC(C)C)NC(=O)[C@H](CCCCN)NC(=O)[C@@H](N)CCCCN)C(=O)N[C@H](C(=O)N[C@@H](Cc1ccccc1)C(=O)N[C@H](C(=O)N1CCC[C@H]1C(=O)N[C@@H](CCCCN)C(=O)N[C@@H](CCCCN)C(=O)N[C@H](C(=O)N[C@@H](CCCNC(=N)N)C(=O)N[C@@H](CCC(=O)O)C(=O)N[C@@H](CCCCN)C(=O)N[C@@H](CCCCN)C(=O)N[C@@H](CCCCN)C(=O)N[C@@H](CCC(=O)O)C(=O)N[C@@H](CS)C(=O)N[C@@H](CC(C)C)C(=O)N[C@H](C(=O)O)C(C)C)[C@@H](C)O)[C@@H](C)CC)[C@@H](C)O | voltage-gated sodium channel | resurgent sodium current, kinetic model fit | mouse CA3 neurons | 200 µM, membrane potential -10 mV | – | rate constant kOB | 252 s⁻¹
CC(C)(C)C(=O)Nc1ccc2[nH]c(CN3CCC(N(CCCN4CCOCC4)CC4OC(n5cnc6c(N)ncnc65)C(O)C4O)CC3)nc2c1 (stereo not shown) | DOT1L R231Q | Western blot | H460 R231Q cells | concentration not given | reference: untreated | H3K79me2 level | decreased
CC1OC(Oc2c(-c3ccc(O)cc3)oc3cc(O)cc(O)c3c2=O)C(OC(=O)C=Cc2ccc(O)cc2)C(O)C1OC(=O)C=Cc1ccc(O)cc1 (stereo not shown) | CCR2 N199A | – | CHO-K1 | concentration not given | reference: wild type over N199A | binding affinity loss | 2 fold
C[C@]12CC[C@@H]3c4ccc(OCC(=O)N[C@@H](CCCCNC(=O)CN5CCN(CC(=O)[O-])CCN(CC(=O)[O-])CCN(CC(=O)[O-])CC5)C(=O)O)cc4CC[C@H]3[C@@H]1CCC2=O.[68Ga+3] | estrogen receptor | – | nude mice, MCF7 xenograft, tumour | dose not given, 2.5 h post-injection, together with: estradiol 200 µg co-injected | reference: unblocked | uptake reduction by blocking | ~62%
CC(C)C[C@H](NC(=O)[C@@H]1CCC(=O)N1)C(=O)N[C@H](C(=O)N[C@@H](Cc1ccccc1)C(=O)N[C@H](C(=O)N[C@@H](CO)C(=O)N[C@@H](CO)C(=O)N[C@@H](Cc1c[nH]c2ccccc12)C(=O)NCC(N)=O)[C@@H](C)O)[C@@H](C)O | AKHR Bombyx mori EGFP | agonist | HEK293 stable AKHR-EGFP | 10 nM, 37 °C | – | time to internalization onset | 5 min
COc1ccc(N2C(=O)C=CC2=O)cc1 | DPP3 (Candida albicans) | GFP fluorescence | Candida albicans, BWP17 DPP3-GFP | 2 µg/mL, 4 h | reference: untreated | DPP3 expression | 2.55 fold
O=c1c2sccc2n(CC2COc3ccccc3O2)c(=O)n1O (stereo not shown) | Kluyveromyces lactis XRN1 | inhibitor | – | 100 µM, 37 °C, together with: RNA:DNA duplex 500 nM | – | inhibition | no effect
CC[C@H](C)[C@H](NC(=O)[C@H](Cc1ccccc1)NC(=O)[C@@H](NC(=O)[C@@H](NC(=O)[C@H](CC(C)C)NC(=O)[C@H](CCCCN)NC(=O)[C@@H](N)CCCCN)[C@@H](C)CC)[C@@H](C)O)C(=O)N[C@@H](CC(C)C)C(=O)N[C@@H](CCCNC(=N)N)C(=O)N[C@@H](CCCNC(=N)N)C(=O)N[C@H](C(=O)N[C@@H](CCCNC(=N)N)C(=O)N[C@@H](CCC(=O)O)C(=O)N[C@@H](CCCCN)C(=O)N[C@@H](CCCCN)C(=O)N[C@@H](CCCCN)C(=O)N[C@@H](CCC(=O)O)C(=O)N[C@@H](CS)C(=O)N[C@@H](CC(C)C)C(=O)N[C@H](C(=O)O)C(C)C)[C@@H](C)O | voltage-gated sodium channel | resurgent sodium current, kinetic model fit | mouse CA3 neurons | 200 µM, membrane potential -30 mV | – | rate constant kIO | 3 s⁻¹
COc1cc(CCC(C)=O)ccc1O | mAb 2-LD2 | antibody binding, indirect competitive ELISA | – | together with: coating antigen hapten 3-OVA | – | IC50 | > 4 µg/mL

Excerpt of the above:
SMILES | target | assay | test system | conditions | how to read | quantity | value
CC(C)(C)C(=O)Nc1ccc2[nH]c(CN3CCC(N(CCCN4CCOCC4)CC4OC(n5cnc6c(N)ncnc65)C(O)C4O)CC3)nc2c1 (stereo not shown) | DOT1L R231Q | Western blot | H460 R231Q cells | concentration not given | reference: untreated | H3K79me2 level | decreased
CC1OC(Oc2c(-c3ccc(O)cc3)oc3cc(O)cc(O)c3c2=O)C(OC(=O)C=Cc2ccc(O)cc2)C(O)C1OC(=O)C=Cc1ccc(O)cc1 (stereo not shown) | CCR2 N199A | – | CHO-K1 | concentration not given | reference: wild type over N199A | binding affinity loss | 2 fold
C[C@]12CC[C@@H]3c4ccc(OCC(=O)N[C@@H](CCCCNC(=O)CN5CCN(CC(=O)[O-])CCN(CC(=O)[O-])CCN(CC(=O)[O-])CC5)C(=O)O)cc4CC[C@H]3[C@@H]1CCC2=O.[68Ga+3] | estrogen receptor | – | nude mice, MCF7 xenograft, tumour | dose not given, 2.5 h post-injection, together with: estradiol 200 µg co-injected | reference: unblocked | uptake reduction by blocking | ~62%
CC(C)C[C@H](NC(=O)[C@@H]1CCC(=O)N1)C(=O)N[C@H](C(=O)N[C@@H](Cc1ccccc1)C(=O)N[C@H](C(=O)N[C@@H](CO)C(=O)N[C@@H](CO)C(=O)N[C@@H](Cc1c[nH]c2ccccc12)C(=O)NCC(N)=O)[C@@H](C)O)[C@@H](C)O | AKHR Bombyx mori EGFP | agonist | HEK293 stable AKHR-EGFP | 10 nM, 37 °C | – | time to internalization onset | 5 min
